# Published values from different studies.
# Compare with care: the assays were run in different laboratories. “And” joins repeats or separate records; there may be more than shown. Numbers after ± are the reported error.
SMILES,assay,system,conditions,how to read,measurement,result
COC1OC(C)C(OS(=O)(=O)O)C(OC2OC(C)C(OS(=O)(=O)O)C(OC3OC(C)C(OS(=O)(=O)O)C(OC4OC(C)C(OS(=O)(=O)O)C(OC5OC(C)C(OS(=O)(=O)O)C(OC6OC(C)C(OS(=O)(=O)O)C(OS(=O)(=O)O)C6OS(=O)(=O)O)C5OS(=O)(=O)O)C4OS(=O)(=O)O)C3OS(=O)(=O)O)C2OS(=O)(=O)O)C1OS(=O)(=O)O (centres unmarked),,human plasma,64 µg/mL,,activated partial thromboplastin time,128 s and 127 s
N#CCNC(=O)c1ccc(C2CCCCC2)cc1,liver microsome stability,human liver microsomes,"1 µM, without NADPH",,hepatic clearance,3.9 mL/min/kg
COC(=O)C1CN1S(=O)(=O)c1ccc2cc(C)ccc2c1 (centres unmarked),,"mouse, Lewis lung carcinoma","ip, 100 mg/kg, 240 h",,tumour volume,330 mm3
Cc1[nH]nc2c1N=C(c1ccccc1Cl)c1cnc(N3CCOCC3)cc1N2,,mouse sample J TNBC PDX,"oral, 15 mg/kg, 120 h, 5 days per week",,tumour growth inhibition,71%
COc1ccc(NC(=O)c2ccc3[nH]c(-c4ccc(N(C)C)cc4)nc3c2)cn1,,"CT26, BALB/c mice, subcutaneous syngeneic graft","dose not given, day 7",,tumour volume,288 mm3 and 63.5 mm3 and 294 mm3 and 204 mm3 and 156 mm3
COCC1CN(C2CCN(c3cc(OC)c(Nc4ncc(Br)c(Nc5ccc6c(c5P(C)(C)=O)OCCO6)n4)cc3C)CC2)C1,RECIST 1.1,advanced EGFR-mutant NSCLC patients,150 mg once daily,,not evaluable patients,0%
COc1cnc2cccc(N3CCc4c(cc(Cn5ccnc5)cc4-c4cn(C)nc4C(F)(F)F)C3=O)c2c1,,"BALB/c nude mice, MV4-11 xenograft","intraperitoneal, 50 mg/kg, day 21",,tumour volume,205 mm3 and 131 mm3 and 275 mm3 and 116 mm3 and 150 mm3
COC1OC(C)C(OS(=O)(=O)O)C(OC2OC(C)C(OS(=O)(=O)O)C(OC3OC(C)C(OS(=O)(=O)O)C(OC4OC(C)C(OS(=O)(=O)O)C(OS(=O)(=O)O)C4OS(=O)(=O)O)C3OS(=O)(=O)O)C2OS(=O)(=O)O)C1OS(=O)(=O)O (centres unmarked),,human plasma,64 µg/mL,,activated partial thromboplastin time,63 s and 61.9 s and 63.4 s
Cc1ccc(N(O)/N=N/c2ccc(S(=O)(=O)Nc3nccs3)cc2)cc1,ABTS scavenging,,300 µg/mL,,inhibition,96.4%
Nc1ccc2c(c1)CN(C1CCC(=O)NC1=O)C2=O (centres unmarked),deuterium-hydrogen exchange,aqueous phosphate buffer,"pH 7.4, 37 °C",,exchange rate constant,-0.021 h⁻¹
CC(=O)[O-].O.[Cu+2].[O-]c1ccc(Br)cc1C=NCCN1CCOCC1,DPPH radical scavenging,,120 µM,,inhibition,36.6%
COC1OC(C)C(OC2OC(C)C(O)C(OC3OC(C)C(O)C(OS(=O)(=O)O)C3OS(=O)(=O)O)C2OS(=O)(=O)O)C(OS(=O)(=O)O)C1OS(=O)(=O)O (centres unmarked),,human plasma,128 µg/mL,,activated partial thromboplastin time,35 ± 0.2 s
COC1CN([C@H]2CC[C@H]([C@@]3(C)Oc4c(Cl)cc(C(=O)NCc5c(SC)cc(C)[nH]c5=O)c(C)c4O3)CC2)C1,"RNA-seq, refers to: SPATA6 mouse homolog","mouse, HT-1376 xenograft, whole blood",dose not given,relative to: vehicle,log2 fold change,0.834
COC1OC(C)C(OS(=O)(=O)O)C(OC2OC(C)C(OS(=O)(=O)O)C(OS(=O)(=O)O)C2O)C1O (centres unmarked),,human plasma,128 µg/mL,,activated partial thromboplastin time,36.3 ± 0.7 s
COc1c(Cl)cccc1Nc1c(-c2ccncc2C#C[C@@]2(C)CCCN2C(=O)/C=C/CN(C)C)[nH]c2c1C(=O)NCC2,,"male NSG mouse, PDX","100 mg/kg once daily, 42 days, EGFR SVD",,tumour growth inhibition,139%
Nc1nc2cc(CC[C@H]3C[C@@H](n4ccc5c(N)ncnc54)[C@H](O)[C@@H]3O)ccc2cc1Br,,"NCI-H441 xenograft, mouse","10.0 mg/kg/day, day 38",,%ΔTGI,141%
COc1cc(O)ccc1CCC(c1ccc(O)cc1)c1cc2c(c(C)c1O)OC(c1ccc(O)cc1)CC2 (mixture of isomers),,human blood,"1 µM, together with: A23187",,TXB2 level,527 ± 128 pg/mL
COC1OC(C)C(OC2OC(C)C(O)C(OC3OC(C)C(OC4OC(C)C(O)C(OC5OC(C)C(OC6OC(C)C(O)C(OC7OC(C)C(OC8OC(C)C(O)C(OS(=O)(=O)O)C8OS(=O)(=O)O)C(OS(=O)(=O)O)C7OS(=O)(=O)O)C6OS(=O)(=O)O)C(OS(=O)(=O)O)C5OS(=O)(=O)O)C4OS(=O)(=O)O)C(OS(=O)(=O)O)C3OS(=O)(=O)O)C2OS(=O)(=O)O)C(OS(=O)(=O)O)C1OS(=O)(=O)O (centres unmarked),,human plasma,64 µg/mL,,activated partial thromboplastin time,159 s and 160 s and 173 s
COc1cc2c(NC3CCN(C(C)C)CC3)cc(N3CCOCC3)nc2cc1OCCCN1CCCC1,"TMT proteomics, refers to: GMFB","5xFAD mice, hippocampus","dose not given, unit not given",relative to: wild type,protein level difference,0.0398
COC1OC(C)C(OS(=O)(=O)O)C(OC2OC(C)C(OS(=O)(=O)O)C(OC3OC(C)C(OS(=O)(=O)O)C(OC4OC(C)C(OS(=O)(=O)O)C(OC5OC(C)C(OS(=O)(=O)O)C(OC6OC(C)C(OS(=O)(=O)O)C(OC7OC(C)C(OS(=O)(=O)O)C(OC8OC(C)C(OS(=O)(=O)O)C(OC9OC(C)C(OS(=O)(=O)O)C(OC%10OC(C)C(OS(=O)(=O)O)C(OS(=O)(=O)O)C%10OS(=O)(=O)O)C9OS(=O)(=O)O)C8OS(=O)(=O)O)C7OS(=O)(=O)O)C6OS(=O)(=O)O)C5OS(=O)(=O)O)C4OS(=O)(=O)O)C3OS(=O)(=O)O)C2OS(=O)(=O)O)C1OS(=O)(=O)O (centres unmarked),,human plasma,8 µg/mL,,activated partial thromboplastin time,46.5 s and 46.9 s and 46.8 s
CN1CCC[C@]1(C)/C=C/S(=O)(=O)NC(=O)Nc1c2c(cc3c1CCC3)CCC2,,"human, whole blood ex vivo","50 mg single dose, 3 h, single ascending dose, together with: LPS and ATP",,IL-18 inhibition,130%
COC1OC(C)C(OC2OC(C)C(OS(=O)(=O)O)C(OC3OC(C)C(OC4OC(C)C(OS(=O)(=O)O)C(OC5OC(C)C(OC6OC(C)C(OS(=O)(=O)O)C(OS(=O)(=O)O)C6OS(=O)(=O)O)C(OS(=O)(=O)O)C5OS(=O)(=O)O)C4OS(=O)(=O)O)C(OS(=O)(=O)O)C3OS(=O)(=O)O)C2OS(=O)(=O)O)C(OS(=O)(=O)O)C1OS(=O)(=O)O (centres unmarked),,human plasma,128 µg/mL,,activated partial thromboplastin time,213.2 ± 1 s
CC(=O)Nc1ccc([C@H]2[C@@H](F)[C@@H](F)C[C@@H](F)[C@H]2F)cc1,liver microsome stability,human liver microsomes,"1 µM, without NADPH",,hepatic clearance,13 mL/min/kg
